Experimental data pooled from the literature.
leuO S120D: leuO fragment S120D (Escherichia coli)
rpl-10a: rpl-10a 1-216 (Caenorhabditis elegans, UniProt Q9N4I4)
UniProt Q9N4I4, sequence (whole entry, looked up): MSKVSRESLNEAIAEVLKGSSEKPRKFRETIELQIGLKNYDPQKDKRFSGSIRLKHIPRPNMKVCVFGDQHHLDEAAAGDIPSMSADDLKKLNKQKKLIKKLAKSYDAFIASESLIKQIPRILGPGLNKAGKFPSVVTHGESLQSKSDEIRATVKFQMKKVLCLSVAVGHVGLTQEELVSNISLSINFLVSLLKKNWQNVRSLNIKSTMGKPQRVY
fur full length assumed: fur full length assumed (Acidithiobacillus ferrooxidans, UniProt B7J425)
UniProt P35222, sequence (whole entry, looked up): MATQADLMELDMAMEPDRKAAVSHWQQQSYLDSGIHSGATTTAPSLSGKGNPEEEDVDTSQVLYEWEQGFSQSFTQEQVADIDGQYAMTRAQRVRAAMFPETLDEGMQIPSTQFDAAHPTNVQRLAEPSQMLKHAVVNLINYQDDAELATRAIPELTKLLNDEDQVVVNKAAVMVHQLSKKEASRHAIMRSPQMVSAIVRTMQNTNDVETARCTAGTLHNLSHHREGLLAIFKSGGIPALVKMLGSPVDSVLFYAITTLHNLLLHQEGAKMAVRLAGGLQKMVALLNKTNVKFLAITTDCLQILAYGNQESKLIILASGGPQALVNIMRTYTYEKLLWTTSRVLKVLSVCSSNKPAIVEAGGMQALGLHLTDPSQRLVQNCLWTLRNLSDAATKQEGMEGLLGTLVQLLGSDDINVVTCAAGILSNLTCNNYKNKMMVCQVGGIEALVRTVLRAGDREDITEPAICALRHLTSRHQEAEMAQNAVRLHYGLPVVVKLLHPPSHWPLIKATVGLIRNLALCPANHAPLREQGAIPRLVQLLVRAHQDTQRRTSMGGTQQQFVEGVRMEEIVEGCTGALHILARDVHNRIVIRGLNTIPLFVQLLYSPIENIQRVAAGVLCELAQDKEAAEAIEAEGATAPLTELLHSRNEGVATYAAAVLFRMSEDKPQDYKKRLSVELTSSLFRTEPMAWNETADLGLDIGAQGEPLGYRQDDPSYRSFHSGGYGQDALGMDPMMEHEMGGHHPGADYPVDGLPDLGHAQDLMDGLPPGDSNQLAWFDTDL
UniProt O60656, sequence (whole entry, looked up): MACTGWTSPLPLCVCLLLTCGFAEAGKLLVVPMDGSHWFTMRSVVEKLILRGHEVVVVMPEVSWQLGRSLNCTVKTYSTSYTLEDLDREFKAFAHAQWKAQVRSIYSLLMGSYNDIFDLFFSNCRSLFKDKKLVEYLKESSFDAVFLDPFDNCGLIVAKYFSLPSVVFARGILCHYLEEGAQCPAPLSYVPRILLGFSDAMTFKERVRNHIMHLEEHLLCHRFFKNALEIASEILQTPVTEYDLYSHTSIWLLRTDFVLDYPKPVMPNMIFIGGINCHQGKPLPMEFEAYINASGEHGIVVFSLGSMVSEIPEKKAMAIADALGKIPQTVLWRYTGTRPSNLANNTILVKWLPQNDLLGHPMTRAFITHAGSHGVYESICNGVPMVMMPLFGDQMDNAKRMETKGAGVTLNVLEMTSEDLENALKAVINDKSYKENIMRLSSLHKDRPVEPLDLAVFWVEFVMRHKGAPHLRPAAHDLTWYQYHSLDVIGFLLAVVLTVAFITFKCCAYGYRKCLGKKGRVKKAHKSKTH
UniProt Q9M274, sequence (whole entry, looked up): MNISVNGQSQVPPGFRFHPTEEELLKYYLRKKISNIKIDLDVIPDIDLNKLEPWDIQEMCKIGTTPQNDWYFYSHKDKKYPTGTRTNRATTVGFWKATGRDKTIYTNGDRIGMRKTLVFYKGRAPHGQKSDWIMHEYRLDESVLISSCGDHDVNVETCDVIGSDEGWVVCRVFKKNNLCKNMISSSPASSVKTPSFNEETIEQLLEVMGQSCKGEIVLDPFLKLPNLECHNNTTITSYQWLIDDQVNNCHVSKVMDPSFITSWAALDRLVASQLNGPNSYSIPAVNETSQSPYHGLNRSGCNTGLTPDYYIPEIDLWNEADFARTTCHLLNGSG
UniProt P75989, sequence (whole entry, looked up): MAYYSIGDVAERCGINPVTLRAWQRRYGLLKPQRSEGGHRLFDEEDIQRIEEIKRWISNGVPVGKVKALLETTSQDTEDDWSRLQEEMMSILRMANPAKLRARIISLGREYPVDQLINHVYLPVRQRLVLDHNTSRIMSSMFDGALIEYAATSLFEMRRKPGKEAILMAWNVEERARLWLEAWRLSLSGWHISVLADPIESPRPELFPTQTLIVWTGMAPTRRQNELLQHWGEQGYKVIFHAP
UniProt F4JVI3, sequence (whole entry, looked up): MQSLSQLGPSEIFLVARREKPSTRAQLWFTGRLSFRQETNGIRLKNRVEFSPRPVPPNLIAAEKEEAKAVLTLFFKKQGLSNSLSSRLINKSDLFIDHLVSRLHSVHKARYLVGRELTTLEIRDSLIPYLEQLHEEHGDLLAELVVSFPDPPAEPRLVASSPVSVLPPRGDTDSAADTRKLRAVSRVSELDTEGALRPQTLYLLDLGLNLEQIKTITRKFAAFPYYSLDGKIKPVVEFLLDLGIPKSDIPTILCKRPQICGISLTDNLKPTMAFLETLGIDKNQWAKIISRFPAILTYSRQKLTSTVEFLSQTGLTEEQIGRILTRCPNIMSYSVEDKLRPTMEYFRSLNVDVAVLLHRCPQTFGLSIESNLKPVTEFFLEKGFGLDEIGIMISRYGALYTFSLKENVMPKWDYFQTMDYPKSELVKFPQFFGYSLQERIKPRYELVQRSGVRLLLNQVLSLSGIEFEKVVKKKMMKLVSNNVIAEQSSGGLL

| Substance | tested on | test | test system | conditions | measurement | result |
| --- | --- | --- | --- | --- | --- | --- |
| UGT1A9 (Homo sapiens, UniProt O60656) | O=c1c(O)c(-c2ccccc2)oc2ccccc12 | steady-state kinetics |  | pH 7.4, 37 °C | Vmax | 0.0021 µmol/min/mg |
| CCTACTTAAGTAGGGAAGGTGCACAATGTACATCTTCTTTTAATTTCCCGGTATGAGATTTTATATTCACAGTATGAATATTTTATGTAATAAAATTCATGGTAATTATTATAACTAAAAGTTTCTTTAATAATAAAACGAATAACTTGCAGATTTGAAATGCAT (dsDNA (Escherichia coli); blunt) | leuO S120D | DNase I footprinting | double-stranded DNA, one strand shown |  | binding | binds |
| GGGAGAUGAAAUAAUGAUAUGAGCUGGUAUAAUGUAACCAAUCGUGUCAUUUGGAUUUAUUUCUAUUGUUCUAUUUUCCAGACUGAAGCACAUUCCACGCCCAAACAUGAAGGUGUGCGUCUUCGGAGACCAGCACCAUCUUGACGAGGCUGCC (ssRNA) | rpl-10a | UV crosslinking |  |  | binding | binds weakly |
| TTATTGGGCAGACTGTTGCCGACGTTGTTAAATCCGGGCAGATCCGCCCCGCAGGTGGGACAGGTCCGGCTCTTGGTACTCAATTCTTCTCTGCTGTTCATGGGAATATCCCCTATCTGATGGATGCTAGTGATTCTCTTTTACATCAGCTAGGACCATACCGCATTGAGAATTGTTAATTTGTCTATAGAAATTTTTACCTTTGCTTTCCTCCAATGGAGTCCTGCCTCTCAGTGATCAA (dsDNA) | fur full length assumed | EMSA | double-stranded DNA, one strand shown | supershift, competed by cold probe, added: Mn2+ 0.1 mM | binding | binds |
| GCAGACCTTGTGGCAACAATTTCTACAAAACACTTGATACTGTATGAGCATACAGTATAATTGCTTCAACAGAACATATTGACTATCC (dsDNA) | lexA 2-202 (Escherichia coli, UniProt P0A7C2) | SPR | double-stranded DNA, one strand shown |  | binding | binds |
| GTGTCATAAGAAAGCTTCAAGAGACAGCAACAAGATTTGGTGGAAGAAGGAGACAGCTCAGTGTAGTTAGTGTTTTTATATAATTTAATTGCTTGAGCTTCCAACTTCTACTGTTTGTTATTCTTTTGAGTTCTTTAGAATTTGTATAACTTAGAGTAGCTTTCAAGTTATTATGTATTTCTACTTTAGTCTTACTTAATATTTTGTATCTTATAAACTTTACCAAATCTGG (dsDNA (Arabidopsis thaliana)) | NAC066 full length assumed (Arabidopsis thaliana, UniProt Q9M274) | EMSA | double-stranded DNA, one strand shown | added: NST2 | binding | binds |
| GGGAGAGAAGGACAAGCGUUUCAGCGGAUCCAUCAGGUAGCUACGACCUGUGAAAACAGGGAGUUGGGACUUUCAAAGCCUAAUUAUUGCCGCUUUGAAAUAAUGAUACGAGCUGGUAUAAUGUAACCAAUCGUGUCAUUUGGAUUUAUUUCUAUUGUUCUAUUUUCCAGACUGAAGCACAUUCCACGCCCAAACAUGAAGG (ssRNA) | rpl-10a | UV crosslinking |  |  | binding | binds weakly |
| GATCGATCGACACACACACACACACAGATCGATCGA (dsDNA; N6-methyl-dA at 12,14,16,18,20,22,24,26; blunt) | Pc fragment (Drosophila melanogaster) | pull-down | double-stranded DNA, one strand shown |  | binding | binds |
| DNA 1 CGAGGTATGGCACTGGCCGTCGTTTTCG / DNA 2 CGAAAACGACGGCCAGTGCCATAC (dsDNA; 4-nt 5' overhang, recessed primer) | POLG/POLG2 26-1239; 26-485 del43-52 (Homo sapiens) | cryo-EM | double-stranded DNA | added: dCTP | binding | binds |
| GTATAGATTGTCAGTTAAATGATGCAATATGTTTTATCATAACACATTGTTTTATATGCATTAGCACTAATTGCAAAAAATTAATTTATCATTCTGTACACATATTTCGTACAAGTTTGCTATTGTTACTTCACTTAACATTGATTAACATTTTTAACAGAGGCGTAGCATGCATC (dsDNA) | bluR 1-243 (Escherichia coli, UniProt P75989) | DNase I footprinting | double-stranded DNA, one strand shown | 0-3.94 µM | binding | binds |
| GGGAAGUCUAAUGAUCAUAUUUAUUUAUUUAUAUGAACCAUGUCUAUUAAUUUAAUUAUUUAAUAAUAUUUAUAUUAAACUCCUUAUGUUACUUAACAUCUUCUGUAACAGAAGUCAGUACUCCUGUUGCGGAGAAAGGAGUCAUACUUGUGAUCUAGACU (ssRNA) | CTNNB1 full length assumed (Homo sapiens, UniProt P35222) | EMSA |  |  | binding | binds |
| GTAGACTCTAAAAATACCCTTGGTACTTTATTGACGATCTCACAAAGATGCAATCTCAGTGAATTTTAATTTACTTATTCATCTTTTACAGAATCGATT (dsDNA) | MTERF5 44-493 (Arabidopsis thaliana, UniProt F4JVI3) | DNase I footprinting | double-stranded DNA, one strand shown |  | binding | binds |
| CCAAGGCAGCAGTAGAAGCAAGACCATAAAGGCTATCCGGCGAACGAACAGGCGAAAATTGCGCACAATACCTCAATTTCGAAACGATAATTTTATTGTCATAACGCAACGATCGTCCAATGTCAATCCTGCTGCGACTGATCGCCGCGCATCCCGCCCTTTCTGGCGCGCCCCTTATTCACGGCTTTTTCTACCCATTGGGTAGCCTG (dsDNA) | fur full length assumed | EMSA | double-stranded DNA, one strand shown | supershift, added: Mn2+ 0.1 mM | binding | binds |
| DNA 1 GGACGGCATTGGATCGAGGTTGAGTTGGTTGGACGGCTGCGAGGA / DNA 2 TCCTCGCAGCCGTCCAACCAACTCA (dsDNA; 5' overhang 20 nt) | POLG/POLG2 26-1239; 26-485 (Homo sapiens) | SAXS | double-stranded DNA |  | binding | binds |
| TTGAAATGCATGCATTATTGTCTTTAAACAATTCAACACATCTTAATATATGTATAGGTTAATTGTATTAAACCAATGAATATATTTTTGCAGTGAATGTGATTATTGAATTAATTACGCCGTATTTTTTCTTTGTTTTTACCGATAACGGAAGTGTGCCGACGTA (dsDNA (Escherichia coli); blunt) | leuO S120D | DNase I footprinting | double-stranded DNA, one strand shown |  | binding | binds |
| TCTTTCCTTTCTGTGGATGCCGGAACAGGGAGCGTGGCAGACGAGACAGCTATGCCCGGAATCGCTTGATAAGTAACTTATCATATATGTAATTATTCTTGACAGATCCATTTCCTGCGCTACACTGAGATTGCAAATAAACATTACATTTCGTGTTTCATTCGGGGGTCTTTCATGTCCGGGACTTTGGCAGAAACGGAATACCAGGTCGCCTTGA (dsDNA) | fur full length assumed | EMSA | double-stranded DNA, one strand shown | supershift, added: Mn2+ 0.1 mM | binding | binds |
| GGACGGCATTGGATCGAGGTTGAGTTGGTTGGACGGCTGCGAGGA (dsDNA) | POLG/POLG2 26-1239; 26-485 (Homo sapiens) | DLS | double-stranded DNA, one strand shown |  | binding | binds |

A few entries again:
| Substance | tested on | test | test system | conditions | measurement | result |
| --- | --- | --- | --- | --- | --- | --- |
| UGT1A9 (Homo sapiens, UniProt O60656) | O=c1c(O)c(-c2ccccc2)oc2ccccc12 | steady-state kinetics |  | pH 7.4, 37 °C | Vmax | 0.0021 µmol/min/mg |
| GATCGATCGACACACACACACACACAGATCGATCGA (dsDNA; N6-methyl-dA at 12,14,16,18,20,22,24,26; blunt) | Pc fragment (Drosophila melanogaster) | pull-down | double-stranded DNA, one strand shown |  | binding | binds |
| DNA 1 CGAGGTATGGCACTGGCCGTCGTTTTCG / DNA 2 CGAAAACGACGGCCAGTGCCATAC (dsDNA; 4-nt 5' overhang, recessed primer) | POLG/POLG2 26-1239; 26-485 del43-52 (Homo sapiens) | cryo-EM | double-stranded DNA | added: dCTP | binding | binds |
